Published values from different studies.
Every numbered part comes from another study and shows a few of its results, in no order.

Set 1
Target: Interferon regulatory factor 5, full length, phosphomimetic (IRF5, Homo sapiens, UniProt Q13568-2, residues 1-514, K96S/S451D/S453D/S456D/S462D)
Method: protein-binding microarray
Molecule type: double-stranded DNA, one strand shown
Medium: in vitro
Concentration: 250 nM
Setting: 60-bp whole probe
With: salmon DNA 0.4 mg/ml
Baseline: random background probes
Direction: higher = stronger binding
Constant ends, left off below: GCCTAGCAC … GTCTTGATTCGCTTGACGCTGCTG
| Sequence | log fluorescence [z-score] |
| --- | --- |
| TTAGGGTTCGACTATCGGTTAGTGCTA | 5.91 |
| TTAGGTCTCGGTCTCGGTGAGTGCTAG | 0.648 |
| TTAGAACTTGGGTTTCGATTAGTGCTA | 6.82 |
| GACGATCTCAGGCTCGAGACGTGCTAG | -0.334 |
| GTAGGACTGGGTTTCGGTTAGTGCTAG | 7.94 |
| TCAAACTTTTTTCTGATACTGTGCTAG | 1.13 |
| GACGGTTCCCTTTTCCTAACGTGCTAG | 0.507 |
| TTAGGTTACCTTTTCCTTTAGTGCTAG | 0.742 |
| TGAGATTTCGGGACTGGATTAGTGCTA | 1.52 |
| TTAGAAGTGGGGTATCGATTAGTGCTA | 2.49 |
| GACGATTTCCTTTCCCTGACGTGCTAG | 0.845 |
| GACGGTATCGACTATCGGTACGTGCTA | 6.76 |
| TTAGGAGTGGTACATGAAGCGTGCTAG | -0.344 |
| TCAGTTATTAAATTTTCAACTGTGCTA | 1.02 |
| TCACCTCTCACGCATCTGACTGTGCTA | 0.12 |
| TTAGATATCGGGTTTCGATTAGTGCTA | 7.55 |
| TGAGGACTGGGTCTCGGTTAGTGCTAG | -0.304 |
| TTAGGTTTCGTTCTCCTTTAGTGCTAG | 7.46 |
| CTCCCATTATATTTTAATCAGTGCTAG | 0.594 |
| TTAGGTTTGGGTTCCGGTTAGTGCTAG | 0.629 |
| TTCAGTTTTCCTCTGTCATTGTGCTAG | 1.39 |
| GACGGTATCGACTTTGGGGACGTGCTA | 1.59 |
| GACGGACTGCTGCTCCTGACGTGCTAG | -0.783 |
| GACGGTTTCGGTTCTGGGACGTGCTAG | 9.48 |

Set 2
Target: RNA binding protein fox-1 homolog 2, RRM domain, GST-SBP tag (RBFOX2, Homo sapiens, UniProt O43251-10, residues 100-194)
Method: RNA Bind-n-Seq
Molecule type: RNA
Medium: in vitro
Concentration: 365 nM
Setting: natural RNA segment, single round, ends assumed
Baseline: no-protein control
Direction: higher = stronger binding
Constant ends, left off below: GGGAGUUCUACAGUCCGACGAUC … UGGAAUUCUCGGGUGCCAA
Residues (chain): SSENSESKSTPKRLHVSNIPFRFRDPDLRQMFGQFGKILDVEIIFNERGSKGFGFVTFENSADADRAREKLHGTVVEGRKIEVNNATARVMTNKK
| Sequence | RBNS enrichment (R) |
| --- | --- |
| ACACUCAUCCCUGGUCGUCUAUCCCAGUGUGUGUUUAACAUUCACAGCCCAGAACCACAGAUGUGUCUGGGAGAGCCUGGCAAGGCAUUCCUCAUCACCAUCGUGUUUGC | 0.294 |
| GAACGACAUAAAGAAAGCUCUACAAUCAAAAUGAAUACUUGAUCAAUGAAAUGUCACAUUAUUCAUCCUGAGUCCGAGACUCAAAUUUUCUGCCCCAGCCAAAAUAAUCU | 0.35 |
| CAGUAAACCUAAAAGGUAGUGGAGAAUUGCUUCCUGCUAGCAGGAAGCCUUCAUCUUCUUGAGUACCCAAACCAGGCUUCAGGUGUCCUUUGAGGAUAGCCAGGUUUGAA | 0.36 |
| CUUGAGAAGCUGUCACAAGGUCACUACAAGCCCAACCUGCCCCUUCACUUUGCCUUCCUGAGUUGGCCCCACUCCACUUGGGGGUCUGCAUUGGAUUGUUAGGGAUAGGC | 0.374 |
| AGGGACUCUGCUUUCCUGUACUUCCUAAAAGUACAUUCACUAAUACUGAAGCAUCAAAGUGUAGUUUAACCUUAAGGUUGGGUUGUAAAUAACACAGUUGGGUGUAGGCA | 0.776 |
| CAGUGAACACCCCAGCAGCCUUUCAGCAAAUUGGCUUUGGACAUGGACCCUUCUCAGCCUGUACCAAGUACUGCAGCUCAGUGUCAUGAGCAUCCUUUGGAGCAGGUCAA | 0.355 |
| AUGUUAUUUCUUCCUCACAUCCAUCCAGUGGGGAGGACCCUCUGACUUAAGGGACCACCUUGGGAAGCUUCUGUAGCUUCAGCCAGGCAAGAAAGCUUCUUCCAACUUCU | 0.308 |
| CUUUCCUCUUCUAUGACCCCUCUCUCCCCAGUAUUAUCUUACUUGCAAAAUGGAGACCAAAUUCUAUCCUGUGAGGCUUUUAAUUGCACCAUAGUAUGCUCUGAGUAGCU | 0.428 |
| CAUACAGUGGAAGUGCUACCUCUAAUCUAACCAGAGCACCUUCAUGGUGGAAGACACCCACCAGGUCAUACAAUGUGAACUUUUGUAUCUCUGCAGUGGUUUCAAGGACA | 0.321 |
| AAACUACUUUAGAGCCUCUUUUUCUCCCAACUCAUAUUUUUGAUAGGAAAAACAGAAAACCCAUCCAGUUCUUCAGAAAUUGCUUUCUAGGCAUUAAUACUACUUUACUA | 0.684 |
| AGAUAACAAAACACAUUAACACAUUCUUACUGGAUAAUCCAAUUUGCCAAAACAUUUGGGCAUUGUGCCCACCACCUGCCCACACAUAGGAAGUCCACUUCAGUAAGUGC | 0.735 |
| ACCUGGAGCUGUGGCAAUGAUGCCAGCAACCUGUGUCACCCAAAAUAGUCAAAAUCCAGCCCUCCACAGACACUCCCCAGGACCUGGGGAGGGAAGGGAUUUUGAGUCAC | 0.273 |

Set 3
Target: PABPC1L2, full length, GST fusion (mouse, UniProt A0ABA7IW68)
Method: RNAcompete
Molecule type: RNA
Medium: in vitro
Concentration: 20 nM
Setting: 7-mer, probes averaged, single round
Baseline: mean of 7-mers
Direction: higher = stronger binding
Construct (chain): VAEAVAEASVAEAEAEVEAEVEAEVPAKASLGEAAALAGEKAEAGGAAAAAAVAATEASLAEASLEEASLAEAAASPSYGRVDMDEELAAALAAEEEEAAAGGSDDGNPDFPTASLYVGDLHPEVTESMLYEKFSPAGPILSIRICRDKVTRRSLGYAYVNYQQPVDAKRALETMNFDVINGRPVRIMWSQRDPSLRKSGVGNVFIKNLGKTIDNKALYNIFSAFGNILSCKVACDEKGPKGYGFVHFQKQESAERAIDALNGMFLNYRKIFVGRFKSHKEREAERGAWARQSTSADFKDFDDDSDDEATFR
| Sequence | 7-mer Z-score |
| --- | --- |
| UCCGUGA | -0.228 |
| UCACGAA | 0.195 |
| AGUUCUG | -0.331 |
| CAACGGC | -0.211 |
| ACAGGGG | 0.425 |
| GUCACAG | 0.115 |
| AAUCUAC | 0.00979 |
| UUUUACC | -0.258 |
| AAACUCC | 0.427 |
| UAAAAUC | 1.96 |
| CGGGAUC | 0.00254 |
| AAGCGUC | -0.0609 |
| CCCGACA | -0.22 |
| AAUAUCG | 0.278 |
| GAUAUCU | -0.199 |
| AUUACUA | 0.017 |
| ACCGAUA | 0.102 |
| UAGUUGC | -0.32 |
| UCCACCG | -0.313 |
| AGGGGUA | 0.294 |
| GCACUAG | -0.139 |
| CAUCAGC | -0.222 |
| CUGACAA | 0.316 |
| GUCGCUC | -0.325 |
| AAUCGAU | 0.267 |

Set 4
Target: Histone acetyltransferase KAT6A, both winged helices, GST fusion (KAT6A, Homo sapiens, UniProt Q92794, residues 1-181)
Method: protein binding microarray
Molecule type: double-stranded DNA, one strand shown
Medium: in vitro
Concentration: not given
Setting: 8-mer, flanks averaged, mean of 2 arrays, mostly near background
Baseline: not given
Direction: higher = stronger binding
Target sequence (chain): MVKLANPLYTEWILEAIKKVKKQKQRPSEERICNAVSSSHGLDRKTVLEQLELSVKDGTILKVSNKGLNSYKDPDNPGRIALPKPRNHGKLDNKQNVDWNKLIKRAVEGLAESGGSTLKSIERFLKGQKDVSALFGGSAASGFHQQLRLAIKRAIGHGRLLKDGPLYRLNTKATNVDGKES
| Sequence | E-score |
| --- | --- |
| CACGTTGA | -0.113 |
| ACTTGGCC | -0.129 |
| AACTAAGG | -0.102 |
| CGCGTACG | 0.358 |
| AATGCGCG | 0.363 |
| CCCACGCG | 0.238 |
| AAGGACCC | -0.0429 |
| CAAAACGG | 0.163 |
| AAACCAGC | -0.00507 |
| AGTCCATC | -0.00019 |
| CGCGCCCC | 0.337 |
| GAAATAAA | -0.00231 |
| CACCCCGG | 0.0696 |
| AACACCCC | -0.117 |
| CCAACGAC | -0.00987 |
| ACGAGGCC | -0.0787 |
| GGACGTGA | -0.0396 |
| AGCCGAGG | 0.0295 |
| GCATTGAA | -0.00228 |
| AGCACGAC | -0.00112 |
| CAGAACAA | -0.0329 |
| CGATTATC | 0.0931 |
| CTCGTAAG | 0.0783 |
| AGGACAAG | -0.194 |
| ATGGCCAT | -0.163 |

Set 5
Target: Fragile X messenger ribonucleoprotein 1, C-terminal low-complexity region (Fmr1, Mus musculus, UniProt P35922)
Method: RNA Bind-n-Seq
Molecule type: RNA
Medium: in vitro
Concentration: 200 nM
Setting: whole 134-nt RNA, ends assumed
With: 150 mM LiCl
Baseline: input library
Direction: higher = stronger binding
All molecules: 7-deaza-guanosine replaces G
Constant ends, left off below: GGGAGUUCUACAGUCCGACGAUC … UGGAAUUCUCGGGUGUCAAGG
| Sequence | log2 enrichment |
| --- | --- |
| CCUGUGCUACACAUCGUAUGUACCGAAUCGGGGAAAAAAAGGGGUUUGGGGAAAAAGGGGAAAGUAUUAUGUUACGCCGUUCGGAUCUGC | -1.49 |
| UGGCCCUGGUGGCAUGCGGGGAGGAAGAGGUGGCCUUAUGGAUCGUGGUGGUCCCGGUGGAAUGUUCAGAGGUGGCCGUGGUGGAGACAG | 0.561 |
| GUCCUGUGCUACACAUCGUAUGUACCGAAUCGGGGUUUUUUGGUUUUUUGGUUUUUUGGAAAGUAUUAUGUUACGCCGUUCGGAUCUGCA | -1.49 |
| UAACUUUAGAGGAGGAUCUGAUGGAUAUGGCAGUGGACGUGGAUUUGGGGAUGGCUAUAAUGGGCAUGGAGGAGGACCUGGAGGUGGCAA | 0.578 |
| CAAGUCCUGUGCUACACAUCGUAUGUACCGAAUCGGUUUUUUUGGAGGUUUUUGGAAAGUAUUAUGUUACGCCGUUCGGAUCUGCACUUC | -1.23 |
| CACAGACAACACGCACCCACACAGACACAGAGGGAAGGGGUUGGGAUGGGGACAGGGUGCACAGCAGGGCGGGGUAGGACCCCAGCAAAU | -0.233 |
| AGUCCUGUGCUACACAUCGUAUGUACCGAAUCAAACCCCCCCAAACCCAAACCCAAAAAAGUAUUAUGUUACGCCGUUCGGAUCUGCACU | 0.381 |
| GCAGGAAGUAAAAACAAAUGGAAAUGCUUCGGAUAGUGGCAGGGGUGGGGGUUGCUAAGGAAAGGGUGGGAUGGGAGUGGGUAAAGAAUU | 1.53 |
| ACCAUGCAGGUGGGCAUCUUUGGGAAGUGGGGCAAGGGGGGGAUAGGGAGGUGGGUAACACUUUGGGAACAGGUGGUCCCAGGUCGUUUC | 1.12 |
| GUAGGAAGUAAAAACAAAUGGAAAUGCUUCGGAUAGUGGCAGGGGUGGGGGUUGCUAAGGAAAGGGUGGGAUGGGAGUGGGUAAAGAGUU | 1.98 |
| AGUCCUGUGCUACACAUCGUAUGUACCGAAUCGGCCCCCCGGCCCCCCGGCCCCCCGGAAAGUAUUAUGUUACGCCGUUCGGAUCUGCAC | 1.27 |
